Published values collected from several papers.
Numbered parts are unrelated; each lists some results of a single study. Substitutions count along the parent as printed.

Series 1 — target: CCNB1, cyclin fold, Cln2 fusion (human); method: yeast growth competition, sequencing; medium: yeast; notes: weak parent motif; baseline: not given; direction: higher = stronger binding; measurement: normalised enrichment score
Starting sequence: WEE1 docking peptide (human); HKTFRKLRLFDTP
HKTFKKLRFFDTP [R5K L9F]: 0.151
HKTFRKLRVFDTP [L9V]: 0.624
HKTFRKLRLFNTP [D11N]: -0.614
HKTFRKLRCFDTP [L9C]: 0.329
HDTFRKLRLFDTP [K2D]: 0.978
HMTFRKLRLFDTP [K2M]: 0.663
HKTQRKLRLFDTP [F4Q]: 0.0555
HKTFRKLRWFDTP [L9W]: 0.386
HATFRKLRLFDTP [K2A]: -0.105
HKTFRKARLFDTP [L7A]: 0.117
HKTFRKLRLFDHP [T12H]: 1.02
HKTFRQLRLFDTP [K6Q]: 0.0871
HKTFRKLRLADTP [F10A]: 1

Series 2 — method: RNA Bind-n-Seq; molecule type: RNA; medium: in vitro; concentration: 365 nM; baseline: no-protein control; direction: higher = stronger binding; measurement: RBNS enrichment (R)
Target: RNA binding protein fox-1 homolog 2, RRM domain, GST-SBP tag (RBFOX2, Homo sapiens, UniProt O43251-10, residues 100-194)
Notes: natural RNA segment, single round, ends assumed
Target sequence (chain): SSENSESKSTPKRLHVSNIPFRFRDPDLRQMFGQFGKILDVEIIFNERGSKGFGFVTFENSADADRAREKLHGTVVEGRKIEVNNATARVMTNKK
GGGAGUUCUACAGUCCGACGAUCAGAGUUGUCGAGCCUUGGAAUUGAUGCAGCUGUGUAGUGAGAACACAUUUGGCCAUAUUGGUGCUGCUGUACCAUAGUGUAGACUUUUACAGCUGUGAGGGUGGCUAUUGUGGAAUUCUCGGGUGCCAA: 0.593
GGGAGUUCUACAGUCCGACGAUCUGGGGGUGAGGAGUGGGGAGACUUCUCUGGUCAUUACACUGCUAUUUAUUUCUAGAACUCACUAUCAGUGAGCAGUGCCAGAGUGUUUUCUCUUUGACCUAGAGGUUUCAUGGAAUUCUCGGGUGCCAA: 0.592
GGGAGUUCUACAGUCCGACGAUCCAUGAGCACAGGUGCCUCAUGGCAAACAUGGCUGGCAUGUUCAACUGCAUAAUGCUCUGGCACUGUAUUUUGAAUGACAUUAAUUUAUUAAAUAAAUUGUAUAUAAUCAGUGGAAUUCUCGGGUGCCAA: 1.13
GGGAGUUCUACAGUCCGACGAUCACUGAUGACUUGUGUGCAAACAAGUGUUUAUCCGGGUUGCAUUAUCCAAACUGGUUUGUUAAAAACUCUAGGUCACAUUCUUACACUAAGAAAAACAGUUAACAUGAGACUGGAAUUCUCGGGUGCCAA: 0.265
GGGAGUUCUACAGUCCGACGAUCCACAUGUAAUAGACCCUUUAGCUUUAAUGAGCAGACAUGAGAAUGGUUUAUGAUCUUAAGUUGGUAACAUAGGAAUAUGUAUUUGUCAAUUUUAGUUCACAAACAUAUCCUGGAAUUCUCGGGUGCCAA: 0.521
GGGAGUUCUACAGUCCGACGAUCUUGUGUUGAUGUCUUAGGUCAUUUUCUUUUUUUCUUUCUCUUUUUUUAUUACCAGAGGAGAUGUUUUAAUAUUCAUGAGAAGAGGAACAUUUUCUAGAUUUUUUUGUUGUUGGAAUUCUCGGGUGCCAA: 0.758
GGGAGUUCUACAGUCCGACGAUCCCCUGGAUGGUACCGUUUCUUCUCCGUCUCUCUUUGAUGAUUCUUUGGGACCAAAGUCCUCUCCUUAGUGCGCCUACUUCCUGUGGGCAUCAUGCCACUUGGAACUUAUUUGGAAUUCUCGGGUGCCAA: 0.338
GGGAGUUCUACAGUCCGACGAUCAGAUGUGAAUACAUAUUGUAAGAGCACGUUGAAUAGUGUGCAUUACUGUGGGGAAACACCGAAACUGCUGUUGUUUUUCAUUUCUACUGUAUUUUAGUUGCAGCCUAUUUUGGAAUUCUCGGGUGCCAA: 0.445
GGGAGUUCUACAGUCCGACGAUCAAUUUAAUAAGUCUCAGGCAUUUCCAAUUGUAGACUAAAACCACUCUUAGCAUCUCCUCUAGUAUUUUCCAUGUAUCAGGACAGAGGUGUCUUAUGUAGGGAGGGGGCAAUGGAAUUCUCGGGUGCCAA: 0.68
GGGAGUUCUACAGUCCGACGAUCGUGGGAGUGUGGAUGGGGAGGAAGGUUCUAGGCUCUCUUAUUUUUCUCAUUUCCCAAUGCCUCUCUGUGGGAGAGCUCCAUGCCAGUUUUCACCACGCUCAGGCAAAUACUGGAAUUCUCGGGUGCCAA: 0.333
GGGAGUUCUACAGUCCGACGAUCAAAAAGUAUAUAUACAUAUCUUUUGAAGUGUUAAAAGGAAACUAGUACUUUAUAUUCUUUAUCAUAUCACUUUUUGUAAGUGUUGAAUAUAUUCCUGUUUAUUUUUCUAUUGGAAUUCUCGGGUGCCAA: 0.444
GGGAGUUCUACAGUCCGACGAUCCUGUGUACUUAUCUUCCCCAAGAGAAAAUGCUUCUUUUGAGCACACUGUACCUACCAUCUGCAUUGAGCAGAAAGACUUUUGUUUUACUGAAGACAAAAGAUGUUUUUAUUGGAAUUCUCGGGUGCCAA: 0.455

Series 3 — method: protein-binding microarray; molecule type: hairpin DNA; medium: in vitro; concentration: not given; baseline: not given; direction: higher = stronger binding; measurement: median fluorescence
Target: Runt-related transcription factor 1, full length (RUNX1, Homo sapiens, UniProt Q01196-8, residues 1-480)
Notes: whole hairpin DNA, median over replicate spots
GAGGCCTCGTGCGGTTGGCCTCCTGGCCAACCGCACGAGGCCTCACACTC (5mC at 36): 3190 a.u.
CTCAGTTGTGTGGGCTGGACTCCTGTCCAGCCCACACAACTGAGACACTC: 1950 a.u.
CTCAGTTCTGTGGGCTGGACTCCTGTCCAGCCCACAGAACTGAGACACTC (5mC at 35): 1990 a.u.
GAGGCCTGTCGCGCTTGGCCTCCTGGCCAAGCGCGACAGGCCTCACACTC: 1730 a.u.
CTCAGTTCTGAGGGCTGGACTCCTGTCCAGCCCTCAGAACTGAGACACTC: 1710 a.u.
CTCAGTTCTGTGGGCTGGACTCCTGTCCAGCCCACAGAACTGAGACACTC (5mC at 33): 1710 a.u.
GAGGCCTGCGGTGGTTGGCCTCCTGGCCAACCACCGCAGGCCTCACACTC (5mC at 9 35): 2260 a.u.
GAGGCCTGTCGCGGTCGGCCTCCTGGCCGACCGCGACAGGCCTCACACTC (5mC at 16 28): 2320 a.u.
GAGGCCTGTCGCGGTCGGCCTCCTGGCCGACCGCGACAGGCCTCACACTC (5mC at 16): 2270 a.u.
GAGGCCTGTGGTGGTTGGCCTCCTGGCCAACCACCACAGGCCTCACACTC: 2310 a.u.
GAGGCCTGTCCCGGTTGGCCTCCTGGCCAACCGGGACAGGCCTCACACTC: 1730 a.u.
GAGGCCTGTTGCGGATGGCCTCCTGGCCATCCGCAACAGGCCTCACACTC: 1970 a.u.
GAGGCCGGTTGCGGTTGGCCTCCTGGCCAACCGCAACCGGCCTCACACTC (5mC at 38): 7480 a.u.
GAGGCCTGTTGTGGTTGGCCTCCTGGCCAACCACAACAGGCCTCACACTC (5mC at 28): 3430 a.u.
GAGGCCTGTTATGGTTGGCCTCCTGGCCAACCATAACAGGCCTCACACTC: 1800 a.u.
GAGGCCTGTCGCGGTGGGCCTCCTGGCCCACCGCGACAGGCCTCACACTC (5mC at 29): 2060 a.u.

Series 4 — method: RNA Bind-n-Seq; molecule type: RNA; medium: in vitro; concentration: 1 µM; notes: whole 134-nt RNA, ends assumed; added: 150 mM KCl; baseline: input library; direction: higher = stronger binding; measurement: log2 enrichment
Target: Ras GTPase-activating protein-binding protein 1, C-terminal RGG region (G3BP1, Homo sapiens, UniProt Q13283)
Chain of UniProt Q13283 (whole entry, looked up): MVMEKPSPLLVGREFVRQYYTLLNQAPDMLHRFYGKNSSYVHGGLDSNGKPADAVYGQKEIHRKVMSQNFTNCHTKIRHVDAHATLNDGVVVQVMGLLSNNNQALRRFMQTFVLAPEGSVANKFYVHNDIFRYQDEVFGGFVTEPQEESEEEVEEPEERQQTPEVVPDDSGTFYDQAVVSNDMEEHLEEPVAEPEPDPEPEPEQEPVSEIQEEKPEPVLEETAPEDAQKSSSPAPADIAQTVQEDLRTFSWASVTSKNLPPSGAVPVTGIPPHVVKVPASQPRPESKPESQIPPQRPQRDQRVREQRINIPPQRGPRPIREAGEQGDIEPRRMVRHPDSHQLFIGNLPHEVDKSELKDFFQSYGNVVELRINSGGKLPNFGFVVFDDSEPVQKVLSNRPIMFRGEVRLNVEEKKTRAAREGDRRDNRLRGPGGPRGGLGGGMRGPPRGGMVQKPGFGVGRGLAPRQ
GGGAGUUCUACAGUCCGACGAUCGCAGGAAGUAAAAACAAAUGGAAAUGCUUCGGAUAGUGGCAGGGGUGGGGGUUGCUAAGGAAAGGGUAGGAUGGGAGUGGGUAAAGAGUUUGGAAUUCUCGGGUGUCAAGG: 2.08
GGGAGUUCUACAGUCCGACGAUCGUCCUGUGCUACACAUCGUAUGUACCGAAUCGGGUUUUUUUGGGAAAAAGGGAAAGGGAAAGUAUUAUGUUACGCCGUUCGGAUCUGCACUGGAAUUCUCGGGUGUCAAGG: -0.602
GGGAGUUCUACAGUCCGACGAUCUCAAGUCCUGUGCUACACAUCGUAUGUACCGAAUCGGAAAGGUUUUUUUGGAGGAAAGUAUUAUGUUACGCCGUUCGGAUCUGCACUUCCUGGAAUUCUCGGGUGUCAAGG: -1.56
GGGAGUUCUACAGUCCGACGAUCUAACUUUAGAGGAGGAUCUGAUGGAUAUGGCUGUGGACGUGGAUUUGGGGAUGGCUAUAAUGGGUAUGGAGGAGGACCUGGAGGUGGCAAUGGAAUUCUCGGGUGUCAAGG: -1.35
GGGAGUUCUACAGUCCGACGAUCGCAGGAAGUAAAAACAAAUGGAAAUGCUUCGGAUAGUGGCAGGGGUGGGGGUUGCUAAGGAAAGGGUGGGAUGGGAGUGGGUAAAGCGUUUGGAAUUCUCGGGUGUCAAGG: 1.42
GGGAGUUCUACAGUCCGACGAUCCUGUGCUACACAUCGUAUGUACCGAAUCGGGGAAAAAAAGGGAAAAAAAGGGAAAAAAAGGGAAAGUAUUAUGUUACGCCGUUCGGAUCUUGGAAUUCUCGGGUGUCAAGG: -1.33
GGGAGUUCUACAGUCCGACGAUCAAGUCCUGUGCUACACAUCGUAUGUACCGAAUCGGGUUUUUUUGGGAAAGGGAGGGAAAGUAUUAUGUUACGCCGUUCGGAUCUGCACUUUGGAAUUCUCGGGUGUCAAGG: 1
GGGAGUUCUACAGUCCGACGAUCUAACUUUAGAGGAGGAUCUGAUGGAUAUGGCAGUGGACGUGGAUUUGGGGAUGGCGAUAAUGGGUAUGGAGGAGGACCUGGAGGUGGCAAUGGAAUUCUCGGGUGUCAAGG: -1.14
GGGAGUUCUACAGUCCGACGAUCUUGACUAUAUUGUGGAGUAUGACUAUGAUGCUGUACAUGAUGAUGAAUUAACUAUUCGAGUUGGAGAAAUCAUCAGGAAUGUGAAAAAGCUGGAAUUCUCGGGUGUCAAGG: -2.16

Series 5 — method: protein binding microarray; molecule type: double-stranded DNA, one strand shown; medium: in vitro; concentration: not given; baseline: not given; direction: higher = stronger binding; measurement: E-score
Target: Histone acetyltransferase KAT6A, both winged helices, GST fusion (KAT6A, Homo sapiens, UniProt Q92794, residues 1-181)
Notes: 8-mer, flanks averaged, mean of 2 arrays, mostly near background
Residues (chain): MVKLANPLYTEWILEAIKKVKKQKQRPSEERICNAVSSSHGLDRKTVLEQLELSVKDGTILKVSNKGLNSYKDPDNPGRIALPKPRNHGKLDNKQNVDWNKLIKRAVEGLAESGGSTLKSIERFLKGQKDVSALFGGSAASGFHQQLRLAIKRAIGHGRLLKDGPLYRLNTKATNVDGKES
ATAAATGA: -0.15
CGCATGCG: 0.264
CTGCTGGA: -0.188
ATTGACTC: -0.16
CCAGCCAG: -0.255
ACTATCAT: 0.0704
CCGGGTAA: 0.105
GCCGTACC: 0.327
ACCCTACC: -0.193
AGCAACTA: -0.0423
GCTAACAC: 0.00251
AATAGTTA: -0.0127
CATTTCAG: -0.143
CATGCCGA: 0.242

Repeated from above (series 3):
CTCAGTTCTGAGGGCTGGACTCCTGTCCAGCCCTCAGAACTGAGACACTC: 1710 a.u.
GAGGCCTGTTATGGTTGGCCTCCTGGCCAACCATAACAGGCCTCACACTC: 1800 a.u.
GAGGCCTGTGGTGGTTGGCCTCCTGGCCAACCACCACAGGCCTCACACTC: 2310 a.u.
CTCAGTTGTGTGGGCTGGACTCCTGTCCAGCCCACACAACTGAGACACTC: 1950 a.u.
GAGGCCTCGTGCGGTTGGCCTCCTGGCCAACCGCACGAGGCCTCACACTC (5mC at 36): 3190 a.u.
CTCAGTTCTGTGGGCTGGACTCCTGTCCAGCCCACAGAACTGAGACACTC (5mC at 35): 1990 a.u.
